# Assay results gathered from unrelated publications.
# A part holds a random share of what one study measured. Positions count from the first letter of the parent shown.

# Set 1
# Target: ABI1, truncated, D143A, DHFR fusion (Arabidopsis thaliana)
# Technique: DHFR PCA, deep sequencing
# Sample: yeast
# Notes: methotrexate growth selection, single substitutions
# Together with: (+)-ABA 4.8 µM
# Reference: wild-type fitted maximum
# Direction: higher = stronger binding
# Starting sequence: PYL1, truncated, DHFR fusion (Arabidopsis thaliana); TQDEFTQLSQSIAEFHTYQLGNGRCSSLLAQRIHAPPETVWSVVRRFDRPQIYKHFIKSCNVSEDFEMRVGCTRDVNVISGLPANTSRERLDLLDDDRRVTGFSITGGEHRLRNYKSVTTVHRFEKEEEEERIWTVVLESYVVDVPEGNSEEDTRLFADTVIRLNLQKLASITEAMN; partner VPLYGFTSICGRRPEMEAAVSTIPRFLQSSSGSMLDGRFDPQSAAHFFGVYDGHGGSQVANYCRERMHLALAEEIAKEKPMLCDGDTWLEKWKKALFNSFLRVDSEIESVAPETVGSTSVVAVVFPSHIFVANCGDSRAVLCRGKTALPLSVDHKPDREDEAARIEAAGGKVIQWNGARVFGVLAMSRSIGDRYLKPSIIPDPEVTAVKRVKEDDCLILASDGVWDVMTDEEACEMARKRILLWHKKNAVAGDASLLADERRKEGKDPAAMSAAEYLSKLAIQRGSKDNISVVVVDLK
Substitution,relative binding score [%]
H110L,3.59
T173L,22
S59V,23.9
M176C,53.9
P37H,-15.3
G81N,2.65
E64F,48.6
K116G,0.649
E147T,55.9
R132Y,63
D96K,7.51
I133E,97.6
S171W,46.5
D3G,56.2
V137N,-6.45
C25K,-14.9
F5V,71.6
L93T,51.8

# Set 2
# Target: Fragile X messenger ribonucleoprotein 1, C-terminal low-complexity region (Fmr1, Mus musculus, UniProt P35922)
# Technique: RNA Bind-n-Seq
# Form: RNA
# Sample: in vitro
# Tested at: 200 nM
# Notes: whole 134-nt RNA, ends assumed
# Together with: 150 mM KCl
# Reference: input library
# Direction: higher = stronger binding
Sequence,log2 enrichment
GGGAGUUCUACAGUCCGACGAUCCCUCAAGUCCUGUGCUACACAUCGUAUGUACCGAAUCGGGAAGGAAGGGAAGGAAAGUAUUAUGUUACGCCGUUCGGAUCUGCACUUCCAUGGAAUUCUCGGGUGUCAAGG,-0.188
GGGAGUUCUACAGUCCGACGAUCAAGUCCUGUGCUACACAUCGUAUGUACCGAAUCAAACCCAAAUUUUUAAAUUUAAAAAAGUAUUAUGUUACGCCGUUCGGAUCUGCACUUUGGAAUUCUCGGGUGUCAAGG,0.196
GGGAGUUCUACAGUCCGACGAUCGUCCUGUGCUACACAUCGUAUGUACCGAAUCAAAUUUUUAAACCCCCCCAAAUUUAAAAAAGUAUUAUGUUACGCCGUUCGGAUCUGCACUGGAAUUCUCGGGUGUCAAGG,0.219
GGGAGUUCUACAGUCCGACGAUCUGGGAGGUGGAUUUUGUUUAUUUUUUUAGGUCAUUUCCAGGGGUGGGAAUUUUUUUUUAAUAUGUGUCAUGAAUAAAGUUGUUUUUGAAAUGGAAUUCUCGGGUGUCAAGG,0.246
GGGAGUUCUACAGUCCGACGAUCCUCAAGUCCUGUGCUACACAUCGUAUGUACCGAAUCGGUUUUUGGAGGUUUGGAAAGUAUUAUGUUACGCCGUUCGGAUCUGCACUUCCAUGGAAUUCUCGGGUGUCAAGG,-0.406
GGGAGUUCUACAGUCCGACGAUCUUUGGUUAUGAACAGGAUUCGGAUUCACGUCUUGCCAACCAAUCGGGGGAGGAUCACUCCAGUGCCCAGGUCUCAGGAACCUCUGUCUUGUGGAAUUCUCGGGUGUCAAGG,-0.342
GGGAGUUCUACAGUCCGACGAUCCUCAGACAACACGCACCCACACAGACACAGAGGGAAGGGGUUGGGAUGGGGACAGGGUGCACAGCAGGGCGGGGUAGGACCCCAGCCCCUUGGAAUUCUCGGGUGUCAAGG,1.42
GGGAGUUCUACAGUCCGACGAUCACCAUGCAGGUGGGCAUCUUUGGGAAGUGGGGCAAGGGGGGGAUAGGGAGGGGGGUAACACUUUGGGAACAGGUGGUCCCAGGUUGUUUCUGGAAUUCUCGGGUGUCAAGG,0.635
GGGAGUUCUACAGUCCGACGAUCAGUCCUGUGCUACACAUCGUAUGUACCGAAUCGGGGAAAAAGGGGAGGGGAAAGGGGAAAGUAUUAUGUUACGCCGUUCGGAUCUGCACUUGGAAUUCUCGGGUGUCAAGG,0.275
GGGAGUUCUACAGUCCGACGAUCAAGUCCUGUGCUACACAUCGUAUGUACCGAAUCGGUUUUUGGAAAGGUUUUUUUGGAAAGUAUUAUGUUACGCCGUUCGGAUCUGCACUUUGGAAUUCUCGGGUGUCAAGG,-1.12

# Set 3
# Target: RING finger protein unkempt homolog, zinc fingers 1-6, GST-SBP tag (UNK, Homo sapiens, UniProt Q9C0B0, residues 30-357)
# Technique: RNA Bind-n-Seq
# Form: RNA
# Sample: in vitro
# Tested at: not given
# Notes: RNA with constant flanks, ends assumed
# Reference: input RNA pool
# Direction: higher = stronger binding
# Construct (chain): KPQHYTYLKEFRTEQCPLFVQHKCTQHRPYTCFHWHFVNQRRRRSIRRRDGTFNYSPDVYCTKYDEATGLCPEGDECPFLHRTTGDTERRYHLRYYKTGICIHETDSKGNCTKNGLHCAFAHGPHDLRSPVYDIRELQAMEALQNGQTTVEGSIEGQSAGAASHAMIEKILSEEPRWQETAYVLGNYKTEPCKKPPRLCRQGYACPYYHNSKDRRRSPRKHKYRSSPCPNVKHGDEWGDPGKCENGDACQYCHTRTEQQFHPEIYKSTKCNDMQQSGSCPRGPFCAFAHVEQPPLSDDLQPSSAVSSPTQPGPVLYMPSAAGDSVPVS
Sequence,bound/input enrichment [ratio]
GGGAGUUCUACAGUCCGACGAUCUUAAUUUAUAUGAAGUUUGAUUUUUUAAAAAAUACCUGAAUUAUUAUUGCCUGCCCUGGCCCGUUUUAUAUCAACUUGAUACAAGCUAGAGUCAUUUGGGGAGAGGGACUCUGAAUUGAGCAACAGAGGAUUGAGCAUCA,0.867
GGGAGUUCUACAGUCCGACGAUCCUUGCAGAGGCUGAGAGUCCCCCCCCCACCUUUUUUUUCAUUUAGAUGUAACAAACCCCGCCGUUUAUGUUCAUCAAUUGUCUGUAUAUCUCUAUAUUUUAUCCAUGUACUCUUUUGAUGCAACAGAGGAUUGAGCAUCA,3.3
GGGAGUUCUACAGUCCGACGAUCGCUUCAGAUGACAUGACUGUGGUAGAUGCAGCUUCAUUAAGACGUCAGAUAAUCAAAUUAAACCGACGUCUCCAACUUCUGGAAGAGGAGAAUAAAGAGCGUGCUAAAAGAGAAAUGGUCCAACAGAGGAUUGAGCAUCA,0.43
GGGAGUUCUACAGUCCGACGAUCGUUGGUACCUCUGUAAAAACUUUAGUGUUAGCGUACAGCUCUGCAGUCUCCAGCAAAAUGGUCCGGCAGAUUUUAGAGCUUUGUCCUAACCUGGAACAUCUGGAUCUUACCCAGACCGACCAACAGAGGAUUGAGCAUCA,0.552
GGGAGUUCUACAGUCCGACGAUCAGGGCAGUGGUAAAAAAUAAUCUUGCCCCACUUUUGAUGUGCAAGGAAUUGGUCACCAUUCCGUAUAUGUUUACUGGCUUCAUCACGGACCCUUAUGUCAACAGGUUCUUUCCAUUCCUACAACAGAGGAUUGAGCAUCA,0.136
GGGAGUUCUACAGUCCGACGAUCGCUGCUACAUUCAGUUUUUUAAUAUCCUAUGGUCAUGAUGCAAUCUUGUGAAUGGCCUUGUCCGUUACAAUGUGGUUUGGAUGGGAAGUGUCCCACCUGUAGACUCACGUCUUUGAACAUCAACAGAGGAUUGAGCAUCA,0.268
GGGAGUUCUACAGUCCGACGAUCCAUGCAGUUGUGGUCAAUAUUGUGGUAAUCGCUAAUUGUACUGAUUGUUUAAGUGUGCAUCCGUUGUGUCUCCCCAGCUAGAUUGUAAGCUCCUGGAGGACAGGGACCACCUCUACAAAACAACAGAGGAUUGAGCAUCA,0.215
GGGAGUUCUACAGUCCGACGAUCCUGCAGCUAACGUCUCCCACUGACUACUCCAUUUUUGAUAACUAUUACAUCCCUGAAAUCACCCGUGUUUUGCUGUUGCGAUCCUGUAAGACUUUAACCCAUGAGAUCGGACACAUACUUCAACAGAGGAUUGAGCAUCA,0.413
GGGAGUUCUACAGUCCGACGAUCUGAACACAUGACGUCAGAUCAAAGAAAACAGAUCUUCUCCAGAUUGGCAGAAAGUUGAUACCGGUGGACUUUUUUACAGGUCAGUUGAGGCAAAAAACUAUGGGUUUUUUCAGGUGAACCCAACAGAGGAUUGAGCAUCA,0.302
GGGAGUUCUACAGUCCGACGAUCUUCAAAGAGAAAACCCAGCAGUGGAAAUUGCUUGGUCAAUCUCAAGAUAAUGAAAAGGAAUCCGCUGCUCUCUUCCACCUGUGGCUGGAAACCAAAGACCAGGCCUUCUGUAAGGAAAAUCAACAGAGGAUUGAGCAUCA,0.0822
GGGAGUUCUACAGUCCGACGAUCUCCCUAAAGAUCAUCGGGAGACUUCAUUGGAUUGACAGAGAAAAGCUUCGAAGUUUCAUCUCCGCGUGUCAAGAUGAAGAGACGGGAGGAUUUGCAGACAGACCAGGAGAUAUGGUGGAUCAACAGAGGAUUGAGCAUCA,0.207

# Set 4
# Target: RNA binding protein fox-1 homolog 2, RRM domain, GST-SBP tag (RBFOX2, Homo sapiens, UniProt O43251-10, residues 100-194)
# Technique: RNA Bind-n-Seq
# Form: RNA
# Sample: in vitro
# Tested at: 365 nM
# Notes: natural RNA segment, single round, ends assumed
# Reference: no-protein control
# Direction: higher = stronger binding
# Target sequence (chain): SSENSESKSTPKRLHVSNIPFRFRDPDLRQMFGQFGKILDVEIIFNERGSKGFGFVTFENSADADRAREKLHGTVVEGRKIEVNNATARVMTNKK
Sequence,RBNS enrichment (R)
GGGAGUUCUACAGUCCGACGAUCUCAAGUGUGCCCACCCUGCAGUCUUCAUCCUCACUCAGCUGCUGCCUCUGGAGGUGCCUUUGGCCACAUGUGCUGUGCUGUUUGUCUCCUCGACAGGGAGCCUGUCCACCUGGAAUUCUCGGGUGCCAA,0.342
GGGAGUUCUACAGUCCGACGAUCUAAUCCCCUGGGUAUUACAUAUUCUGCAAGCCCUGUUAGUGGGGAGAUGGUAGUGGCAAUAGCAGCGAUAGUUGCGUCAGUGCUAACUGCUGCUGCUGCCCGUUCUGUUGUGGAAUUCUCGGGUGCCAA,0.242
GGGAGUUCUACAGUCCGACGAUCGAUAACAUUUUGUAACAUUGUGCUGCCUUAGAGUUUGUACUGUGAGUUCUAUCAGUAUUUAUGUUGAAAUUUCUAACAUGGAUUCUAGUCUCUAUUCUGUUAAUUUAAUUUGGAAUUCUCGGGUGCCAA,0.738
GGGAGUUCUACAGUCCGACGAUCUACUCGAAGGGCUGCAUUUCUCUGAGUUUACGAAAUUGUGUCAUUAUGGUCCCCAUACAGUGGUAUUUAACUUUUAAAGCAACUUUUAAGAAAACUCGACUUGUUUUUUGUGGAAUUCUCGGGUGCCAA,0.56
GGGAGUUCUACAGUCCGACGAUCUUUAAAUGCAGUGCCUAGAGAGAGAGUAUUGUCUCUUCCCCAACACUAACCCCACUCCCAUGAAGAAUUGCCUGGAAAGAUGUUUUCAAGGAAUUUGAACCAUAAAACACUGGAAUUCUCGGGUGCCAA,0.408
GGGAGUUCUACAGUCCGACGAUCGACUGUCUGUCUGUCCAGUAAGGAUUUCUGCCCCCAUCUAAUUGUGUGGCACCCAGUUUUUCCAUGUAGGUCAUUAUACCUGGAUGAUAACAUCAAUUUAGUUACAAUGCUGGAAUUCUCGGGUGCCAA,0.272
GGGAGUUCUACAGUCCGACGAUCCACAAAACACUAGUGAAGCCUGCUGAACUAAUUCUGCCUCUGGAAAUCUUUUCUGGUUCUUUACAGUUUGUUGUUUUGUUUUGAUCCAAGCUUAGUUUGUUACUAUGUGUUGGAAUUCUCGGGUGCCAA,2.39
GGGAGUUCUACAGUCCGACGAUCCUUCAGAGACCACGCAGCCUUCCUUCGAAGACGCACCUGCCCAGCCCAGCCCAGGGGUGCCGUGGAGGACCACCCUGGCAGAGACAUUGCUGAUCCCUGGCUUGGAGCUCUGGAAUUCUCGGGUGCCAA,0.3
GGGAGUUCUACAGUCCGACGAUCAUAUUGAUUAAAAUGUACCACUAGAAAGGUAUUACAUGUGUAUAAGUAUGGGUAAAAAGGCAAGUCACUAGUUUGAGAUGAAAACUAAAAUUUUCAUGGUAAAAUGCCAGUGGAAUUCUCGGGUGCCAA,0.832

# Excerpt of the above (set 1):
Substitution,relative binding score [%]
S171W,46.5
D3G,56.2
V137N,-6.45
C25K,-14.9
F5V,71.6
L93T,51.8
